# Results from different studies.
# A part holds a random share of what one study measured.

# Block 1
# Target: Sal-like protein 4, full length isoform A (SALL4, Homo sapiens, UniProt Q9UJQ4, residues 1-1053)
# Chain of UniProt Q9UJQ4 (whole entry, looked up): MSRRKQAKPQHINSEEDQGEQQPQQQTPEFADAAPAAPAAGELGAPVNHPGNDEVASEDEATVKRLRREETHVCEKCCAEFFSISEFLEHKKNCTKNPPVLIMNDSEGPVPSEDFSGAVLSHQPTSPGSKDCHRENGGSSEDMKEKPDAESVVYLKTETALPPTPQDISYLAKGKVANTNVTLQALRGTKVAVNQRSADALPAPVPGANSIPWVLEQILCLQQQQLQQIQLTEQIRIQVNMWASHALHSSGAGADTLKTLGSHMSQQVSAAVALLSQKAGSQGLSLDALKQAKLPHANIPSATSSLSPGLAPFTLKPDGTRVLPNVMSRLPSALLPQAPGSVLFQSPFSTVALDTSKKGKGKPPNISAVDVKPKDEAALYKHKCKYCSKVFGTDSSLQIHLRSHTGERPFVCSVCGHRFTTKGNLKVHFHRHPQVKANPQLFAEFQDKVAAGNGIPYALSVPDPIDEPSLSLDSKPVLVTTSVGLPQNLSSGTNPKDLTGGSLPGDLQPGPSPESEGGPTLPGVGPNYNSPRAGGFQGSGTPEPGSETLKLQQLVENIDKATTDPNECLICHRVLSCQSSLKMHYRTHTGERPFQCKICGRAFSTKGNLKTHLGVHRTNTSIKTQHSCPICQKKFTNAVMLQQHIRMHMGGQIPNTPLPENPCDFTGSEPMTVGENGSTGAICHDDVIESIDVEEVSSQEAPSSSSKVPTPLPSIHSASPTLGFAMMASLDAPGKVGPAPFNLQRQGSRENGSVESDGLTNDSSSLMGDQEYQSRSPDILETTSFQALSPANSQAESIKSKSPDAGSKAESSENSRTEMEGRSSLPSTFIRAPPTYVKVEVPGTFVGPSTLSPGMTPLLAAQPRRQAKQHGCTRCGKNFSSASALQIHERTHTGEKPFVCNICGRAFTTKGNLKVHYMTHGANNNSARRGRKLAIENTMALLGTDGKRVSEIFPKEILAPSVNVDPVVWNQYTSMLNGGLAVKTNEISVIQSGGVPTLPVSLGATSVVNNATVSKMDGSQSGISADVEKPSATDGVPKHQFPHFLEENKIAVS
# Technique: universal PBM
# Form: double-stranded DNA, one strand shown
# Sample: in vitro
# Concentration: 600 nM
# Setting: 8-mer, flanks averaged, mean of replicates
# Direction: higher = stronger binding
Sequence,E-score
GCTAGTAC,-0.067
GCTTCCTA,0.102
AATCACCG,0.00628
ACCCAGAA,0.0218
CGCCGGGA,-0.369
CCTTCAAG,0.0655

# Block 2
# Target: Histone acetyltransferase KAT6A, both winged helices, GST fusion (KAT6A, Homo sapiens, UniProt Q92794, residues 1-181)
# Technique: protein binding microarray
# Form: double-stranded DNA, one strand shown
# Sample: in vitro
# Concentration: not given
# Setting: 8-mer, flanks averaged, mean of 2 arrays, mostly near background
# Relative to: not given
# Direction: higher = stronger binding
# Residues (chain): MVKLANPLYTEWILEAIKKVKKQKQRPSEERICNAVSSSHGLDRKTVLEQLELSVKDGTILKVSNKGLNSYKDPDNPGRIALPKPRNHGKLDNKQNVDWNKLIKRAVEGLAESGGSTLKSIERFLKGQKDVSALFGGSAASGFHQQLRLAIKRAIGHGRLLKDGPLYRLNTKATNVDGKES
Sequence,E-score
CCGTTCAG,0.0984
CATCCTTA,-0.137
AATCACTA,-0.0165
CCTTCCAC,-0.136
GCGTGTCC,0.245
ATCGTCTC,0.0209

# Block 3
# Target: Interferon regulatory factor 5, full length, phosphomimetic (IRF5, Homo sapiens, UniProt Q13568-2, residues 1-514, S451D/S453D/S456D/S462D)
# Technique: protein-binding microarray
# Form: double-stranded DNA, one strand shown
# Sample: in vitro
# Concentration: 940 nM top
# Setting: 60-bp whole probe
# Together with: salmon DNA 0.4 mg/ml
# Relative to: random background probes
# Direction: higher = stronger binding
Sequence,fitted relative affinity [z-score]
GCCTAGCACGGGTGGGAGCCGAAGACGCCGTGCTAGGTCTTGATTCGCTTGACGCTGCTG,-0.5
GCCTAGCACGACGAACTGAGTCTCGGGACGTGCTAGGTCTTGATTCGCTTGACGCTGCTG,0.426
GCCTAGCACGACGGTATCGGGTTTCGAGACGTGCTAGTCTTGATTCGCTTGACGCTGCTG,5.37

# Other studies, line by line
Molecule,target,assay,system,setting,scale,measurement,result
"PhoQ, residues 284 288 289 292 302 303 QWQEDG","PhoP, residues 12 14 15 18 19 SQCLL (Escherichia coli, UniProt P23836)","Sort-seq, item: YFP reporter",E. coli,"PhoQ-PhoP variant library, together with: 10 µM Mg2+","relative to: high Mg2+ state, higher = stronger signaling",fold induction,15.2
